Literature values, collected from citations in different studies.
Lines come from different studies, so protocols differ. Numbers after ± are the reported error.
ABCB1: ATP-dependent translocase ABCB1 (ABCB1, Homo sapiens, UniProt P08183)
UniProt P08183, sequence (whole entry, looked up): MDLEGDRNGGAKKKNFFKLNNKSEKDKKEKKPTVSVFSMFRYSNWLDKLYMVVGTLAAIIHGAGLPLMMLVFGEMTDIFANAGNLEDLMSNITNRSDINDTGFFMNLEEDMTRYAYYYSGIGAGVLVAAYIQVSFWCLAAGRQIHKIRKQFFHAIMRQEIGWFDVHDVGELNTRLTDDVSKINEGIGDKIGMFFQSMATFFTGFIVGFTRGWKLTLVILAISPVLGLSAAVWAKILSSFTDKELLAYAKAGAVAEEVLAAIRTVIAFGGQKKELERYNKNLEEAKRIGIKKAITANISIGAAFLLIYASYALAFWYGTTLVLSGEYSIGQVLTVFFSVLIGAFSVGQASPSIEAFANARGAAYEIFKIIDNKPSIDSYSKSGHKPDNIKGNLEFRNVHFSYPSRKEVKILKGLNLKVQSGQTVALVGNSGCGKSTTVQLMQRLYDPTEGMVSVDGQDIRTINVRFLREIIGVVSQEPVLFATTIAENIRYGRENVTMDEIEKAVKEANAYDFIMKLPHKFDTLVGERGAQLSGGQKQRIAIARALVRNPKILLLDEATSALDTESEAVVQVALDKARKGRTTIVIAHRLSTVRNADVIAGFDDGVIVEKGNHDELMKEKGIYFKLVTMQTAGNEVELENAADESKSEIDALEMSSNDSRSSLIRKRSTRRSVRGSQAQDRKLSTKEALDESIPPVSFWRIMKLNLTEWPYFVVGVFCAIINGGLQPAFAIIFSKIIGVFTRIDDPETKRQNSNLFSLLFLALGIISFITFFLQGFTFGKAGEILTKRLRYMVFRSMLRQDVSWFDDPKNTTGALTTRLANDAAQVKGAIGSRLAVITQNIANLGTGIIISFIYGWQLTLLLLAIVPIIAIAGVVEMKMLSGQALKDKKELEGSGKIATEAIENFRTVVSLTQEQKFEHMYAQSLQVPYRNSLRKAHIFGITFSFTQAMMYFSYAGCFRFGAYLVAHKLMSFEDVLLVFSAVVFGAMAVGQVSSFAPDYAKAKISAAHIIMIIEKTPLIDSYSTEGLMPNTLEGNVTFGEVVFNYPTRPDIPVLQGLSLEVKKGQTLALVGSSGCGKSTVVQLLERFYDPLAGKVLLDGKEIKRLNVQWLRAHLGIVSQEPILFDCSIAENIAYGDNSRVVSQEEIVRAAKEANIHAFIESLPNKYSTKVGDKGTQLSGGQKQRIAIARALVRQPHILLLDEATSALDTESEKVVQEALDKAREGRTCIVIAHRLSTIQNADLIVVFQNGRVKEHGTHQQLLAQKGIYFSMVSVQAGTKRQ
UniProt P08684, sequence (whole entry, looked up): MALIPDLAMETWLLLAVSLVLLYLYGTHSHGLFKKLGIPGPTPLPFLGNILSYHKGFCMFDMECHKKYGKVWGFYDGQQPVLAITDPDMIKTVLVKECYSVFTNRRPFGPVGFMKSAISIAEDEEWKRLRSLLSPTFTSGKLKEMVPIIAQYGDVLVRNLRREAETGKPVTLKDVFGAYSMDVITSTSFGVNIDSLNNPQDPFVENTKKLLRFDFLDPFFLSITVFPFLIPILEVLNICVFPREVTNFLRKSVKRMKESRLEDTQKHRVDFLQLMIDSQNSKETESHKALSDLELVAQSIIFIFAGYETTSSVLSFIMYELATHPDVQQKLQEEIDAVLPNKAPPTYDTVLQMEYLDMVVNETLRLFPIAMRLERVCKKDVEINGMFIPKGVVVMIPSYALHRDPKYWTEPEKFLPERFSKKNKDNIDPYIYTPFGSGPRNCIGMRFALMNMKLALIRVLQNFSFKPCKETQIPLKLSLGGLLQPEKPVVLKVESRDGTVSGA
UniProt P11712, sequence (whole entry, looked up): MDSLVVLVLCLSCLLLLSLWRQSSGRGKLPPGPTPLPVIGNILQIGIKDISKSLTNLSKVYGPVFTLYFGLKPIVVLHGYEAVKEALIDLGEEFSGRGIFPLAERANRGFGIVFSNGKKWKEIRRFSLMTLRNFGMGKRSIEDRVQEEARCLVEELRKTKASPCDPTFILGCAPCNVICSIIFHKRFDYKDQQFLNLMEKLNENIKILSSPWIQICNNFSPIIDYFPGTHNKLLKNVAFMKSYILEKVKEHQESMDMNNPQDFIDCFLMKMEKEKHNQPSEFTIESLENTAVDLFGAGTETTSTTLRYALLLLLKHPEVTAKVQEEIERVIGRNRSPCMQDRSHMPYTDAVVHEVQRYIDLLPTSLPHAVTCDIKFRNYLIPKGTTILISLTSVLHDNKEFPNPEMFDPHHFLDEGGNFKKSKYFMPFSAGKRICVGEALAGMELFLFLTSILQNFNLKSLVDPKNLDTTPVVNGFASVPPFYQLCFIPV

For `CN1CCC(C)(C)c2cc3c(-c4ccc(C(=S)N5CCCCC5)s4)c4ccc(=[N+](C)C)cc-4sc3cc21`, “cellular dye accumulation ratio” read 1.8 (ABCB1; measured: cell-associated dye; reference: with over without P-gp inhibitor).
`Nc1nc2c(ncn2[C@@H]2O[C@@H]3COP(=O)(O)O[C@H]4[C@@H](F)[C@H](n5cnc6c(N)ncnc65)O[C@@H]4CSP(=O)(O)O[C@@H]2[C@@H]3O)c(=O)[nH]1`: stability “stable” (ENPP1).
`CC#N.Cc1ccc(O)c(CN(CCN(Cc2ccccn2)Cc2ccccn2)Cc2ccccn2)c1.[Mn+2]` has a pKa of 6.16 (Mn(II) complex, metal-bound phenol; 25 °C).
Under “contribution to metabolism”, `Cc1[nH]nc2c1N=C(c1ccccc1Cl)c1cnc(N3CCOCC3)cc1N2` is recorded as 20% (CYP2C8; substrate, chemical inhibition).
With `Cc1cc(C#N)cc(C)c1Oc1nc(NC2CCN(Cc3ccc(S(N)(=O)=O)cc3)CC2)nc2ccsc12` the IC50 was 0.13 µM (hERG; inhibitor).
With `CN1CCC(C)(C)c2cc3c(-c4ccc(C(=O)N5CCCCC5)s4)c4ccc(=[N+](C)C)cc-4sc3cc21` the cell-associated fraction was 8.6 ± 0.1% (ABCB1; substrate; no inhibitor).
For `O=C1C=C2CN(C(C(=O)C3CC3)c3ccccc3F)CCC2S1` (stereo not shown), “contribution to bioactivation” read 2 to 26% (CYP2B6; measured: prasugrel active metabolite; in vitro; concentration not given).
`C[C@@H](c1cc(-c2ccc(OC(F)(F)F)cc2)no1)[C@](O)(Cn1cnnn1)c1ccc(F)cc1F`: inhibition “no inhibition” (CYP1A2; inhibitor; concentration not given).
`COc1ccc(Nc2nccc(-c3c[nH]nc3-c3cccnc3)n2)cc1` has an inhibition of 71% (Cytochrome P450 3A4 (CYP3A4, Homo sapiens, UniProt P08684); 10 µM).
With `CC(=O)N1CCC(NC(=O)NC23CC4CC(C)(CC(C2)c2ccccc24)C3)CC1` the inhibition was 29 ± 3% (Cytochrome P450 2C9 (CYP2C9, Homo sapiens, UniProt P11712); 10 µM).
With `O=C(N1CCC(C(c2ccc3c(c2)OCO3)c2ccc3c(c2)OCO3)CC1)n1cncn1` [carbon-11 labelled] the brain uptake was roughly 0.8 SUV (MAGL; rat, brain).
With `CCCCc1oc2ccccc2c1C(=O)c1cc(I)c(OCCNCC)c(I)c1` the kinact was roughly 0.1 min⁻¹ (CYP2C9; mechanism-based inhibitor; added: diclofenac).
With `O=C(O)c1cc2cc(O)ccc2n1Cc1ccc(Cl)c(C(F)(F)F)c1` the IC50 was 94 µM (human BSEP; bile acid transport).
